# Results of several laboratories.
# Protocols differ between the studies behind these lines. Several values in a cell are separate wells, animals, samples, runs or records.
# Cell line: HCC 2998
Compound,assay,test system,conditions,how to read,measurement,value
C#C[C@@]1(O)[C@@H](CO)O[C@@H](n2cc(Cl)c3c(N)ncnc32)[C@@H]1O,SRB,,NCI-60 screen,,TGI,0.501 µM and 0.565 µM
Cc1n[nH]c2nc(-c3ccc(Cl)cc3)c3c(NC(=O)c4ccccc4)nnc-3n12,SRB,,"10 µM, NCI60 single-dose screen, colon cancer",baseline: untreated,cell growth,115%
CCCCN1CCN(c2ccc3[nH]c(-c4ccc5[nH]c(-c6ccc(OCC)c(OCC)c6)nc5c4)nc3c2)CC1,SRB,,"10 µM, 48 h",,growth percent,-80.4%
CCOC(=O)CSc1nc(-c2ccc(Cl)cc2)c2c(NC(=O)c3ccccc3)nnc-2[nH]1,SRB,,"10 µM, NCI60 single-dose screen, colon cancer",baseline: untreated,cell growth,94.2%
S=C([S][Au-][P+](CCCCCC[P+]([Au-][S]C(=S)n1cccn1)(c1ccccc1)c1ccccc1)(c1ccccc1)c1ccccc1)n1cccn1,"cell growth, NCI-60 screen",,colon cancer,,log10 TGI,-5.48
CCN(CC)c1ccc(C=NNC(=O)CSc2nc3ccccc3c(=O)n2Cc2ccc(S(N)(=O)=O)cc2)c(O)c1,NCI five-dose screen,,,,TGI,> 100 µM
O=C1NC(=NCc2cccs2)S/C1=C\c1ccc2ncccc2c1,MTS,colon cancer,,,IC50,> 10 µM
CCCCN1CCN(c2ccc3nc(-c4ccc5nc(-c6cc(OC)ccc6OC)[nH]c5c4)[nH]c3c2)CC1,SRB,,"10 µM, 48 h",,growth percent,105%
O=C(Nc1nnc2n3c(nc(-c4ccc(Cl)cc4)c1-2)SCC3=O)c1ccccc1,SRB,,"10 µM, NCI60 single-dose screen, colon cancer",baseline: untreated,cell growth,87.1%
CCCC(CCC)C(=O)OCc1cn(-c2c3ccccc3nc3ccccc23)nn1,NCI60 single-dose screen,,10 µM,,growth percentage,108%
CCCN1CCN(c2ccc3[nH]c(-c4ccc5[nH]c(-c6ccc(C(F)(F)F)cc6)nc5c4)nc3c2)CC1,SRB,,"10 µM, 48 h",,growth percent,-89.8%
O=c1ccn(Cc2cn(-c3cc4ccccc4oc3=O)nn2)c(=O)[nH]1,NCI60 single-dose screen,,10 µM,,growth percentage,104%
C#C[C@@]1(O)[C@@H](CO)O[C@@H](n2cc(F)c3c(N)ncnc32)[C@@H]1O,SRB,,NCI-60 screen,,TGI,2.82 µM
Cn1cncc1C1=CN(c2ncnc3[nH]cnc23)CCS1,,,colon cancer,,TGI,> 200 µM
CCCN1CCN(c2ccc3[nH]c(-c4ccc5[nH]c(-c6cc(OC)c(OC)c(OC)c6)nc5c4)nc3c2)CC1,SRB,,"10 µM, 48 h",,growth percent,94.2%
O=C(Nc1nnc2[nH]c(=S)[nH]c(-c3ccc(Cl)cc3)c1-2)c1ccccc1,SRB,,"10 µM, NCI60 single-dose screen, colon cancer",baseline: untreated,cell growth,98.8%
CN1CCN(c2ccc3[nH]c(-c4ccc5[nH]c(-c6ccc(C(F)(F)F)cc6)nc5c4)nc3c2)CC1,SRB,,"10 µM, 48 h",,growth percent,87.2%
Cc1cc(=O)[nH]c(=O)n1Cc1cn(-c2cc3ccccc3oc2=O)nn1,NCI60 single-dose screen,,10 µM,,growth percentage,106%
CCCN1CCN(c2ccc3[nH]c(-c4ccc5[nH]c(-c6ccc(OCC)c(OCC)c6)nc5c4)nc3c2)CC1,SRB,,"10 µM, 48 h",,growth percent,-79.5%
Cc1cc(C)n(-c2nc(-c3ccc(Cl)cc3)c3c(NC(=O)c4ccccc4)nnc-3[nH]2)n1,SRB,,"10 µM, NCI60 single-dose screen, colon cancer",baseline: untreated,cell growth,93%
